Experimental data of several laboratories.
Protocols differ between the studies behind these lines. Numbers after ± are the reported error.
Cell line: MOLT-4

SMILES = COc1cc(OC)cc(C(=O)c2cc3c(-c4ccccc4)c(OC)ccc3o2)c1; assay = cell proliferation; setting = 72 h; measurement = IC50; result = > 50000 nM
SMILES = Cn1cncc1C1=CN(c2ncnc3[nH]cnc23)CCS1; setting = leukemia; measurement = GI50; result = 12300 nM
SMILES = O=C(Nc1nnc2[nH]c(=S)[nH]c(-c3ccc(Cl)cc3)c1-2)c1ccccc1; assay = SRB; setting = 10 µM, NCI60 single-dose screen; scale = reference: untreated; measurement = cell growth; result = 100%
SMILES = CCCCN1CCN(c2ccc3nc(-c4ccc5nc(-c6cc(OC)ccc6OC)[nH]c5c4)[nH]c3c2)CC1; assay = SRB; setting = 10 µM, 48 h; measurement = growth percent; result = 82.7%
SMILES = O=c1ccn(Cc2cn(-c3c4ccccc4nc4ccccc34)nn2)c(=O)[nH]1; assay = NCI60 single-dose screen; setting = 10 µM; measurement = growth percentage; result = 79.5%
SMILES = CCCN1CCN(c2ccc3[nH]c(-c4ccc5[nH]c(-c6cc(OC)c(OC)c(OC)c6)nc5c4)nc3c2)CC1; assay = SRB; setting = 10 µM, 48 h; measurement = growth percent; result = 62.6%
SMILES = Cc1cc(C)n(-c2nc(-c3ccc(Cl)cc3)c3c(NC(=O)c4ccccc4)nnc-3[nH]2)n1; assay = SRB; setting = 10 µM, NCI60 single-dose screen; scale = reference: untreated; measurement = cell growth; result = 108%
SMILES = CCOc1ccc(-c2nc3cc(-c4nc5cc(N6CCN(C)CC6)ccc5[nH]4)ccc3[nH]2)cc1OCC; assay = SRB; setting = 10 µM, 48 h; measurement = growth percent; result = 9.04%
SMILES = Cc1cc(C)n(C(=S)[S][Au][PH](CCCCCC[PH]([Au][S]C(=S)n2nc(C)cc2C)(c2ccccc2)c2ccccc2)(c2ccccc2)c2ccccc2)n1; assay = cell growth, NCI-60 screen; setting = leukemia; measurement = log10 TGI; result = -4.92
SMILES = CCn1cc(-c2cc(Cn3ccoc3=N)cc3c2CCN([C@@H](C)c2cc(OC)ccn2)C3=O)c(C(F)(F)F)n1; assay = cell growth, inhibitor; setting = 120 h; measurement = EC50; result = 3050 nM
SMILES = CCN(CC)c1ccc(C=NNC(=O)CSc2nc3ccccc3c(=O)n2Cc2ccc(S(N)(=O)=O)cc2)c(O)c1; assay = NCI five-dose screen; measurement = TGI; result = > 100000 nM
SMILES = CCCCN1CCN(c2ccc3[nH]c(-c4ccc5[nH]c(-c6ccc(OCC)c(OCC)c6)nc5c4)nc3c2)CC1; assay = SRB; setting = 10 µM, 48 h; measurement = growth percent; result = -0.13%
SMILES = C#C[C@@]1(O)[C@@H](CO)O[C@@H](n2cc(I)c3c(N)ncnc32)[C@@H]1O; assay = SRB; setting = NCI-60 screen; measurement = TGI; result = 831 nM
SMILES = O=C1NC(c2ccccc2)(c2ccccc2)C(=O)N1Cc1cn(-c2c3ccccc3nc3ccccc23)nn1; assay = NCI60 single-dose screen; setting = 10 µM; measurement = growth percentage; result = 53.5%
SMILES = COc1ccc(C(=O)c2cc3c(-c4ccccc4)c(OC)ccc3o2)cc1; assay = cell proliferation; setting = 72 h; measurement = IC50; result = 1400 ± 310 nM
SMILES = Cc1cc(=O)[nH]n1-c1nc(-c2ccc(Cl)cc2)c2c(NC(=O)c3ccccc3)nnc-2[nH]1; assay = SRB; setting = 10 µM, NCI60 single-dose screen; scale = reference: untreated; measurement = cell growth; result = 94.8%
SMILES = COc1ccc(/C=C\c2cc(OC)c(OC)c(OC)c2)cc1O; assay = cell proliferation; setting = 72 h; measurement = IC50; result = 21 ± 0.8 nM
SMILES = O=C(Nc1nnc2n3c(Cc4ccccc4)n[nH]c3nc(-c3ccc(Cl)cc3)c1-2)c1ccccc1; assay = SRB; setting = 10 µM, NCI60 single-dose screen; scale = reference: untreated; measurement = cell growth; result = 107%

For quick reference, copied from above:
SMILES = O=C1NC(c2ccccc2)(c2ccccc2)C(=O)N1Cc1cn(-c2c3ccccc3nc3ccccc23)nn1; assay = NCI60 single-dose screen; setting = 10 µM; measurement = growth percentage; result = 53.5%
SMILES = COc1ccc(C(=O)c2cc3c(-c4ccccc4)c(OC)ccc3o2)cc1; assay = cell proliferation; setting = 72 h; measurement = IC50; result = 1400 ± 310 nM
SMILES = Cc1cc(=O)[nH]n1-c1nc(-c2ccc(Cl)cc2)c2c(NC(=O)c3ccccc3)nnc-2[nH]1; assay = SRB; setting = 10 µM, NCI60 single-dose screen; scale = reference: untreated; measurement = cell growth; result = 94.8%
